# Published values collected from several papers.
# A part holds a random share of what one study measured. Changes are numbered by the printed parent chain.

# Set 1
# Target: Prothrombin, mature alpha-thrombin (F2, Homo sapiens, UniProt P00734)
# Method: aptamer microarray, sandwich
# Molecule type: DNA with 2'F-ANA
# Matrix: in vitro
# Concentration: 200 nM
# Setting: whole 15-mer aptamer, many near background
# Added: Cy3 exosite-II aptamer, 400 nM
# Reading: higher = stronger binding
# Strand: GGTTGGTGTGGTTGG
Modification,mean fluorescence intensity
2'F-ANA at 1 6 15,209 a.u.
2'F-ANA at 1 2 4 6 9 10 11 13 14,48 a.u.
2'F-ANA at 1 3 4 5 7 9 12 13,71.8 a.u.
2'F-ANA at 1 2 4 5 7 8 9 10 11 12 13 15,55 a.u.
2'F-ANA at 1 2 4 6 8,133 a.u.
2'F-ANA at 3 6 7 8 10 12 14 15,393 a.u.
2'F-ANA at 1 2 3 6 9 11 12 13 15,246 a.u.
2'F-ANA at 2 4 5 7 12 14,46.2 a.u.
2'F-ANA at 1 2 7 11,162 a.u.
2'F-ANA at 6 9 10 13 15,131 a.u.
2'F-ANA at 1 3 4 5 8 11 12 13,128 a.u.
2'F-ANA at 1 4 7 9 10 13 14 15,44.9 a.u.
2'F-ANA at 2 4 5 7 8 11 12 14,69.4 a.u.
2'F-ANA at 2 4 5 7 9 10 11 12 13,88.4 a.u.
2'F-ANA at 1 6 7 13 15,136 a.u.
2'F-ANA at 2 3 6 9 12 14,419 a.u.
2'F-ANA at 2 6 7 8 12 15,734 a.u.
2'F-ANA at 5 6 8 9 11 15,63.5 a.u.
2'F-ANA at 1 4 5 6 8 9 10 11 12,52.7 a.u.
2'F-ANA at 2 3 5 6 7 8 9 13 15,65.8 a.u.
2'F-ANA at 1 2 3 5 6 7 9 10 11 13 14,46 a.u.
2'F-ANA at 1 3 4 5 6 8 11 14 15,51.4 a.u.
2'F-ANA at 4 6 8 10 11 14 15,53.7 a.u.

# Set 2
# Target: Protein C-ets-1 (ETS1, Homo sapiens, UniProt P14921, residues 1-441, full length assumed)
# Method: protein-binding microarray
# Molecule type: double-stranded DNA, one strand shown
# Matrix: in vitro
# Concentration: not given
# Setting: k-mer, scored over probes, only values ≥0.25
# Reading: higher = stronger binding
# Construct (chain): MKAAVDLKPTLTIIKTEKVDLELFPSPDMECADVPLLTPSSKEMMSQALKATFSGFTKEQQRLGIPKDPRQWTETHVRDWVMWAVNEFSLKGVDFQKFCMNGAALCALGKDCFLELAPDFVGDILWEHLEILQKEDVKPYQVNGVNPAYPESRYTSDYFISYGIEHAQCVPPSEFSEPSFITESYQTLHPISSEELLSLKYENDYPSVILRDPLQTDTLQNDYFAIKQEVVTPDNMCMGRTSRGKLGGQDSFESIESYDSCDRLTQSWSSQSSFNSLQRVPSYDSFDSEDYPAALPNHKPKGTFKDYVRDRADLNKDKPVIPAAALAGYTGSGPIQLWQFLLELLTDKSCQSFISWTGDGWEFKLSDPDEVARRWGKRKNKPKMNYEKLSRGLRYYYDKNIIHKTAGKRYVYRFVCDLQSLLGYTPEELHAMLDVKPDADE
Strand,E-score
AGTATCCG,0.448
GGATATTA,0.316
ACTTCCTG,0.488
GGGGAAAC,0.318
GATCGGAA,0.345
GGGAAGTA,0.431
ACCGGTTG,0.296
GGGCGGGA,0.36
AGGACGTG,0.295
ATCCCCGG,0.286
AAGCGGAA,0.457
CCGGATCA,0.369
CGGAAACC,0.472
CACGTCCG,0.462
ACAGGACA,0.353
GAAAGGTC,0.252
CTCCTTCC,0.383
GCGGGAAA,0.367
GGCGGGAA,0.387
ACATCCGA,0.432
CTGTATCC,0.365
ACTTCCCG,0.452
ACCGGGAT,0.368
AAACTTCC,0.459
AGGATGCC,0.372

# Set 3
# Target: ABI1, truncated, D143A, DHFR fusion (Arabidopsis thaliana)
# Method: DHFR PCA, deep sequencing
# Matrix: yeast
# Setting: methotrexate growth selection, single substitutions
# Added: (+)-ABA 0 µM
# Relative to: wild-type fitted maximum
# Reading: higher = stronger binding
# Starting sequence: PYL1, truncated, DHFR fusion (Arabidopsis thaliana); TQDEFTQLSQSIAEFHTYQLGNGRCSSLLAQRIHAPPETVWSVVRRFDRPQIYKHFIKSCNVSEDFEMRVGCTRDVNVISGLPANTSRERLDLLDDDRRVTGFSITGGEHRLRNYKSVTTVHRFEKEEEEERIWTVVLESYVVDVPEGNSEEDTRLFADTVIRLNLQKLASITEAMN; partner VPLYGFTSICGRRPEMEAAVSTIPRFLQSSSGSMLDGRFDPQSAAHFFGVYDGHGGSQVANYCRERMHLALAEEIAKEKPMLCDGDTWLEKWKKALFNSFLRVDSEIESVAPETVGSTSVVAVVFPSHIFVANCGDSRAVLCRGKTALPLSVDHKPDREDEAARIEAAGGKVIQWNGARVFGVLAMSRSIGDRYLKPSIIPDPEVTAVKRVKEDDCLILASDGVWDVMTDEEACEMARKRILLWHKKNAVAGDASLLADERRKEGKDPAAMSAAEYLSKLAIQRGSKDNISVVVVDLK
Substitution,relative binding score [%]
L91R,3.07
L93I,58.7
H34V,0.872
F56Q,-2.24
D75R,6.04
V70F,-2.95
S11Y,26.6
K126Q,43.2
D95M,-4.79
S27K,3.16
G81I,14
R45N,-0.597
I162S,6.6
D95V,-10.1
V70D,-0.308
V137I,-2.85
P83Y,6.69
S59G,4.4

# Set 4
# Target: CCNF, cyclin fold, Cln2 fusion (human)
# Method: yeast growth competition, sequencing
# Matrix: yeast
# Setting: weak parent motif
# Relative to: not given
# Reading: higher = stronger binding
# Starting sequence: CDC42EP1 docking peptide (human); SLVVGKLSFDSSP
Substitution,normalised enrichment score
S12A,0.0719
F9A,-1.07
V3A,-0.101
L2A,0.222
D10A,-0.141
S8A,-0.188
K6A,-0.526

# Set 5
# Target: MAFG, bZIP domain (human)
# Method: DHFR protein complementation
# Matrix: yeast
# Setting: single substitutions, most at no-binding floor
# Relative to: wild-type JUN-FOS pair
# Reading: higher = stronger binding
# Starting sequence: JUN, bZIP domain (human); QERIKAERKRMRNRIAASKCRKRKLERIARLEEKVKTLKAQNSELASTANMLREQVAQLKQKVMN; partner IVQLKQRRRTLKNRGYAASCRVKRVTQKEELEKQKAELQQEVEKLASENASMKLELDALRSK
Substitution,binding fitness
R53M,-1.52 natural log
L45N,-1.42 natural log
R30H,-1.56 natural log
K36M,-1.27 natural log
A29R,-1.46 natural log
E32K,-1.45 natural log
T48Y,-1.13 natural log
N42R,-0.891 natural log
A29N,-1.5 natural log
E32Q,-1.24 natural log
S47D,-1.55 natural log
L45T,-1.45 natural log
A57R,-1.19 natural log
A57W,-1.43 natural log
A57S,-1.48 natural log
A29K,-1.45 natural log
V56P,-1.52 natural log
S43A,-1.3 natural log
N42G,-1.44 natural log
L31G,-1.45 natural log

# Set 6
# Target: RNA binding protein fox-1 homolog 2, RRM domain, GST-SBP tag (RBFOX2, Homo sapiens, UniProt O43251-10, residues 100-194)
# Method: RNA Bind-n-Seq
# Molecule type: RNA
# Matrix: in vitro
# Concentration: 365 nM
# Setting: natural RNA segment, single round, ends assumed
# Relative to: no-protein control
# Reading: higher = stronger binding
# All sequences stand within: GGGAGUUCUACAGUCCGACGAUC … UGGAAUUCUCGGGUGCCAA
# Residues (chain): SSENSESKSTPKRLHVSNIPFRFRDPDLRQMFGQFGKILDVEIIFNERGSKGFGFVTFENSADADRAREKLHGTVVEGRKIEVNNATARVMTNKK
Strand,RBNS enrichment (R)
ACAGAACCAAGAGUGGCAAUGCUUUGGAGAAUAGCAGUCCAGCCUAGUUAACAUGGGGAAAGAUGACAACAUUGUAUGUAGUGUUGAACCUGAAGACAUCCUACAAUGAU,0.376
AAACAGACCUGUGUUCCACCCUCUGCAAGAUAAUGUCCAACUACCAAGGUGAUGUUAAGGGCAUAGAAGGGGCAUAUUUGUCUUCAGUUGAAUGCCAUUGUGUGCCAGUU,0.581
UAGGUUUUCUAGAGUUUAAUUCUUUAUCAGCCAGGCAAUGACUCUGAACUCUGAAAUGCUAUAUUAUUUAGGACCCAAAAGAAAAUGGAUCAAUGGCCUUAUCUGUUACA,0.755
UUUUGGAAGGUCAUCAGAUUGUGAGACUGCUUCCUUGAAACAUUUUUGUGCUAUUGUUUUAAAAAAUAAUAAUUAAAAAACAGUUGGCGUUAAUAAAAAUGUCAAUGUGA,0.407
GGAAUUGUGCCUACUUAGGAGUGCCCCUCCAAUUAAUUACAUGUGUCCAAGAAUAAUCCAAGCUAGAGACACAAGGUGGGAAAACAUUUCAAAAAAAAAAAGUCCUCUUA,0.49
AGAUGGCUUUGGGUGUCUGGUACCACUCCUUCCCUUCCCCCUACCUGGCCGAUUGGUGCUCCUUCUACACUCAUACCUCUACCUCUCACUGGGGCCAGCAGGAGUUGGGA,0.624
UCAGACCUUCCCAUCUCCCUGGCUUUCCAUGCUCCUCUCCCUCCACCUCCUGGCUUCAACUGGGUGAGGGCCGUAUUCCUGCCACUCUGCUCCGCCUCAGCCUUGAGAAC,0.358
UGUUUUUAAGGCAUUUUAAAGCUGUAGCAGGCGUAUGCUUCAUUUUCUUCCAAAGAGGCAAAAGCAGCUAGACUCGCUUACAGCACAUGCUUCGCUCCAUGGUAUGGGUG,0.347
AAGGAUGCAAAUAGCCGUCUGCGAUUUUGGCGGCCCUCCGGAUUGUGGUGACAAUAUGUUGUACCCGGACAUUCCCAAAUUUAAAUUUGGCAGUGAAAAUUCCACAAAGA,0.333
AACAGAUAAAGUAGCUGAUGCCUAGAAGAUCCUCUGCUUUUUCCGAUCCAGUGGUAGCCUUUGAUACUCCAAAGUAAUUAUGUUCACCCUCUGUACUAAUGACAUUUACA,0.458
UGACACGGUUGAGUGCUUCUGGGCCGGAAUCCUUAUGGGAAAUCACGUCAAUAAAUUUUAAACGCUCAGCGGUGUCCUGGAUGUGGUCUGUUUUUCAGGCCAUGCGUCUU,0.227
AUAUGAAUGAACAAACCUGUGAUCUAGUCCUUGUCUUGUAAUUGUGGAUUAAUGUCAAUGUUAAUCAGCCCCUCAAAGGGAGAGAAAAGCUGGACCUUUUCCCUUGCUGU,2.14

# Other studies, line by line
Molecule,target,test,system,setting,how to read,measurement,result
"PhoQ, residues 284 288 289 292 302 303 SMMNNA","PhoP, residues 12 14 15 18 19 LHTVM (Escherichia coli, UniProt P23836)","Sort-seq, refers to: YFP reporter",E. coli,"PhoQ-PhoP variant library, added: 10 µM Mg2+","relative to: high Mg2+ state, higher = stronger signaling",fold induction,11.7
